Experimental data of several laboratories.
Every numbered part comes from another study and shows a few of its results, in no order. Substitutions count along the parent as printed.

Block 1 — technique: aptamer microarray, sandwich; form: DNA with 2'F-ANA; matrix: in vitro; tested at: 200 nM; added: Cy3 exosite-II aptamer, 400 nM; direction: higher = stronger binding; oligonucleotide: GGTTGGTGTGGTTGG
Target: Prothrombin, mature alpha-thrombin (F2, Homo sapiens, UniProt P00734)
Setting: whole 15-mer aptamer, many near background
Modification	mean fluorescence intensity [a.u.]
2'F-ANA at 2 3 5 7 8 9 12 13 14	59.1
2'F-ANA at 2 5 9 11 12 14	45.5
2'F-ANA at 2 3 4 5 6 7 9 11 12 13 15	81.8
2'F-ANA at 1 3 6 8 9 13 14 15	93.4
2'F-ANA at 3 5 6 8 9 11 13	86.3
2'F-ANA at 2 6 7 8 9 10 11 12 15	132
2'F-ANA at 3 5 7 11 13 15	93
2'F-ANA at 2 5 6 10 11 12 13 15	49
2'F-ANA at 1 4 9 11 15	103
2'F-ANA at 1 5 6 7 8 9 11 15	65.9
2'F-ANA at 2 5 6 11 13 14 15	49
2'F-ANA at 1 2 3 8 9 11 15	237
2'F-ANA at 1 2 3 5 6 7 9 10 12 13	52.3
2'F-ANA at 2 3 4 8 10	255
2'F-ANA at 1 2 6 7 8 11 12 15	286
2'F-ANA at 2 3 5 6 7 8 11	126
2'F-ANA at 1 2 5 10 11 14	49.5
2'F-ANA at 3 6 9 11 13 15	647
2'F-ANA at 2 5 6 12 13	103
2'F-ANA at 1 3 6 8 9 11 15	262
2'F-ANA at 2 3 4 5 6 7 8 9 10 11 12 14 15	52.9
2'F-ANA at 1 2 4 5 9 10 11 12 14	48.4
2'F-ANA at 2 3 4 5 7 8 12	263
2'F-ANA at 1 3 5 7 8 9 12	193
2'F-ANA at 3 6 8 9 13 14	529

Block 2 — technique: universal PBM; form: double-stranded DNA, one strand shown; matrix: in vitro; tested at: 600 nM; direction: higher = stronger binding
Target: Sal-like protein 4, full length isoform A (SALL4, Homo sapiens, UniProt Q9UJQ4, residues 1-1053)
UniProt Q9UJQ4, sequence (whole entry, looked up): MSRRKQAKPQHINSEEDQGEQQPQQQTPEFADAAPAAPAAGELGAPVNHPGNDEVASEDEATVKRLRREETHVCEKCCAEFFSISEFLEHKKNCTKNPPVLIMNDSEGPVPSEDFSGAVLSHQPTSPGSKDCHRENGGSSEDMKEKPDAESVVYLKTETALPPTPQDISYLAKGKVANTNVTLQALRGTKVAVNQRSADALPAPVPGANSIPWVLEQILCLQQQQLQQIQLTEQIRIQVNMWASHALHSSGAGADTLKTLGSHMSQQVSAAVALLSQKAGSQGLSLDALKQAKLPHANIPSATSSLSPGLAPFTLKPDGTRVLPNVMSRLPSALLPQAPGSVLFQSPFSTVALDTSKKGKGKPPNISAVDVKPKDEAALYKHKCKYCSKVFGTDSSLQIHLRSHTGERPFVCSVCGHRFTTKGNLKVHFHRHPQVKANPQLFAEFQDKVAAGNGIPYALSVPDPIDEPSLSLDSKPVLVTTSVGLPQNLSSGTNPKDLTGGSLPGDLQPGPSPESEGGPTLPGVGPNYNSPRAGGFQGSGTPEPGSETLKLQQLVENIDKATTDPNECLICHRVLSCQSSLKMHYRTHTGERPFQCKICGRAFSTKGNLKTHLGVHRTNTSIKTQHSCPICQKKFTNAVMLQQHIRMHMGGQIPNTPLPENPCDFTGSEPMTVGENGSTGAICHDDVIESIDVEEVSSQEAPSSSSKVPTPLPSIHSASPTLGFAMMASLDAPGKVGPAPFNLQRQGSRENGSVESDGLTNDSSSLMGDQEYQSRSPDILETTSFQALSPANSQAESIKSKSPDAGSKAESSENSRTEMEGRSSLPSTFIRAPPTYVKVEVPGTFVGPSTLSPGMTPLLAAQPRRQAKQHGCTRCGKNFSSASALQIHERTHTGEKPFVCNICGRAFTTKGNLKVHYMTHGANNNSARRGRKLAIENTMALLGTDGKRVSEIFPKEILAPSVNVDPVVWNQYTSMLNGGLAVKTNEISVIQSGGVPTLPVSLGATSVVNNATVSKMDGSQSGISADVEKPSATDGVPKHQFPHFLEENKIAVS
Setting: 8-mer, flanks averaged, mean of replicates
Oligonucleotide	E-score
AGACCTAC	-0.109
CCGTAATA	0.23
CATATTCA	0.318
GATTCGAA	0.0769
ATGCGATA	0.176
CCAGACAC	-0.207
GGTTTTGA	0.137
GCCAGACC	-0.372
AGCGGTAT	0.174
CAAATTAG	0.212
AGTCTCTA	0.0484
AATGGCGC	-0.214
TACTACGA	0.134
AAATTGAC	0.158
CAGGCAAG	-0.141
AATAACTC	0.327
GGTGGGAA	-0.165

Block 3 — target: NFIL3, bZIP domain (human); technique: DHFR protein complementation; matrix: yeast; relative to: wild-type JUN-FOS pair; direction: higher = stronger binding
Setting: single substitutions, most at no-binding floor
Starting sequence: JUN, bZIP domain (human); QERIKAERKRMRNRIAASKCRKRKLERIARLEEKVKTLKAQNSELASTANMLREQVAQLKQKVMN; partner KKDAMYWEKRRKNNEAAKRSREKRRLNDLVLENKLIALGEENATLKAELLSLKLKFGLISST
Variant	binding fitness
L45Y	-1.49 natural log
E32Y	-1.33 natural log
K36T	-1.42 natural log
E33H	-1.51 natural log
A49W	-1.5 natural log
A57N	-1.29 natural log
E44H	-1.54 natural log
A46N	-1.44 natural log
T37E	-1.33 natural log
L52P	-1.53 natural log
S47Q	-1.38 natural log

Block 4 — technique: RNA Bind-n-Seq; form: RNA; matrix: in vitro; tested at: not given; relative to: input RNA pool; direction: higher = stronger binding
Target: RING finger protein unkempt homolog, zinc fingers 1-6, GST-SBP tag (UNK, Homo sapiens, UniProt Q9C0B0, residues 30-357)
UniProt Q9C0B0, sequence (30-357, looked up): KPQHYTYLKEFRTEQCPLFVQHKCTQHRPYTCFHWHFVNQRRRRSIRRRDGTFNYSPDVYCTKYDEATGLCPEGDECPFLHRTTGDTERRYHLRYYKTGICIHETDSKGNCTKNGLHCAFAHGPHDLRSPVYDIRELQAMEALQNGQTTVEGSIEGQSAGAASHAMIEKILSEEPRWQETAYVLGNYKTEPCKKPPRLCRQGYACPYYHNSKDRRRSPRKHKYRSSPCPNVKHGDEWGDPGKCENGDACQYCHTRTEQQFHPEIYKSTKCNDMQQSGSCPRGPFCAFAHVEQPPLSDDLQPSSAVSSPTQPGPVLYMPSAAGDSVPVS
Setting: RNA with constant flanks, human and mouse sites, ends assumed
Oligonucleotide	bound/input enrichment
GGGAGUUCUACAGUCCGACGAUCUCUGUUCAACCUUCCAGCUCCUUAAGUGCUAGGAUGAUGUCUGGAAGCAGAGGAAGUAGUUUAAAUGAUACCUAUCACUCAAGAGACUCUUCAUUUAGAUUGGAUUCUGAAUAUCAGUCUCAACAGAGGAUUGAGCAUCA	0.149 ratio
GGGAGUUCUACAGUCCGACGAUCCUUGUGUGUGGACACAUUUUCCUUUUUGGUUGCUCUGUCCUAUGCUUAGUGCUCUCCUAGCUUUUCUCCAAGCUCCCUGCUUUCUGGCUCUCUCAGUGUCUCCCUCUCUCUCUCUCUCUCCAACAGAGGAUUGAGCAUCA	0.915 ratio
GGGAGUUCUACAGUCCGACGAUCAUUCAUGCAUUUUAAAACUUCACUAAGAUAUUGUCUCAUAUCUUUAUGAGAAUGUCAGCUGACUUUUCAACUAACAGUAAAUGUAUUUUAGAUAUCUAAAUCUUUUGAAAUUUGGUUUUACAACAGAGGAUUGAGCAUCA	0.966 ratio
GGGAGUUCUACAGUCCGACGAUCGAAGAUGGGCCUCCAGAACUCCUGUUUAUUCAUGGAGGACACACUGCUAAGAUUUCAGAUUUUAGCUGGAACCCCAAUGAGCCUUGGGUCAUUUGCUCAGUGUCUGAGGAUAACAUCAUGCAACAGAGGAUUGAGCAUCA	0.123 ratio
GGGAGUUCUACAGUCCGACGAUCGCAAAGCAAAGAAUCCAGGAAAGAAUUGCCAGAGAAGAAAUUAAAAAGAAGAUAUUAUAUGAAGGUACCCACCUCGAUCCUGAAAGAAAACACAACGGCAGCAGCAGCAAUUGAACAAUCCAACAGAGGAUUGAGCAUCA	0.741 ratio
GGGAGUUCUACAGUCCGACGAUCACACUUCGCGUUGCGUUUAGACUAUUUAUUACCGGGAUCACAGGCCUGGCCGCGGUAACAGACUUUUACAUGGAAUUGUUUAAUUAUUUGUACUUUUCAUGCCAGAAAAUAAAAGUUCAGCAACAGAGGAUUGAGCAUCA	0.537 ratio
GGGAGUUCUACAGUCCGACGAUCGGCCGCCGCUGGGGCUAAGAGCAGGGACACCGAGGGUGACUGACCGCUAGAACUCUUCCAGUCGUCCAAACAGCCAUGACCCACUUCAACAAGGGCCCUUCCUACGGGCUCUCCGCCGAACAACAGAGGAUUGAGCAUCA	0.172 ratio
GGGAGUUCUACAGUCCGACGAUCAUCUUAAAAUGGCUUACCCUCCGGUUUUUCGACACCAAUACAAGCGUUCUAAUGAAAGCACUGGAAUAUUUAAAAUUGCUUUUCACCCUGCUGAGUGAGGAAGAGUAUCAUCUUACUGAGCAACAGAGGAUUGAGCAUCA	0.3 ratio
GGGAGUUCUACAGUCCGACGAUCCCAAGGAGGGAGUCCUACAAGUGUGGGGAAUGUGGGAAGGCCUUCAGCCAGAGAGGAAACUUCCUUUCUCAUCAGAAACAACAUACCGAAGAGAGACCCAGUGAAUCUAAGAAAACUCCCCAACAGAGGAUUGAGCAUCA	0.257 ratio

Block 5 — technique: protein binding microarray; form: double-stranded DNA, one strand shown; matrix: in vitro; tested at: not given; relative to: not given; direction: higher = stronger binding
Target: Histone acetyltransferase KAT6A, winged helix 2, GST fusion (KAT6A, Homo sapiens, UniProt Q92794, residues 85-181)
Setting: 8-mer, flanks averaged, mean of 2 arrays, mostly near background
Residues (chain): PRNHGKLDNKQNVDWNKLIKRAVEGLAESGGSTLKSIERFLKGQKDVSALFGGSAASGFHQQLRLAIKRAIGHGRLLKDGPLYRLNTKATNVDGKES
Oligonucleotide	E-score
ACAGCGTC	0.057
TTAGAAAA	0.111
AAATGGTA	-0.054
CGAAGGAC	-0.0125
ATGTATGC	0.0483
ACTTTCAC	-0.0666
GGACTATA	-0.13
GAGGGCGC	0.115
GAGCCTTA	-0.171
AACCATGG	-0.0306
CAAGGGGG	0.0573
ATGAAAAC	0.168
ACGCCGAA	0.121
GGTAAGCA	0.0794
CAAGCGGA	-0.0419
CTGGTCTA	-0.284
GTCATCAA	-0.0994
ACGCTCTA	-0.147
CGCTGCAA	0.0629
ATAGAGTG	-0.106
CGAGGTGA	0.117
CAGGATAC	-0.131

Block 6 — technique: protein-binding microarray; form: double-stranded DNA, one strand shown; matrix: in vitro; tested at: not given; direction: higher = stronger binding
Target: Hepatocyte nuclear factor 3-beta, forkhead domain (FOXA2, Homo sapiens, UniProt Q9Y261, residues 142-269)
Setting: k-mer, scored over probes, only values ≥0.25
Target sequence (chain): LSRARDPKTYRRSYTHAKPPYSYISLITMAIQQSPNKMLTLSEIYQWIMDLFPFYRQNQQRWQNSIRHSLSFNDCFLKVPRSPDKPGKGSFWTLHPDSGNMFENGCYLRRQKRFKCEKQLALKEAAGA
Oligonucleotide	E-score
ACATTACT	0.257
ATTGTTCA	0.326
TACACTGA	0.318
CCAACATA	0.314
GATGTTTA	0.322
ATATACCA	0.312
AACCATTA	0.301
AATGTATG	0.265
AGTAATAT	0.25
AAGTGTAT	0.314
AATGATAT	0.302
CATAGTAA	0.271
AGAATATG	0.294
ACAGAAAC	0.273

Block 7 — technique: RNA Bind-n-Seq; form: RNA; matrix: in vitro; tested at: 200 nM; setting: whole 134-nt RNA, ends assumed; added: 150 mM KCl; relative to: input library; direction: higher = stronger binding
Target: Fragile X messenger ribonucleoprotein 1, C-terminal low-complexity region (Fmr1, Mus musculus, UniProt P35922)
Oligonucleotide	log2 enrichment
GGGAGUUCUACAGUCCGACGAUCUGGGAGGUGGAUUUUGUUUAUUUUUUUAGCUCAUUUCCAGGGCUGGGAAUUUUUUUUUAAUAUGUGUCAUGAAUAAAGUUGUUUUUGAAAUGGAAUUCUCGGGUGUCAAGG	-0.355
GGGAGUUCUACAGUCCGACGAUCACCAUGCAGGUGGGCAUCUUUGGGAAGUGGGGCAAGGGGGGGAUAGGGAGGGGGGUAAGACUUUGGGAACAGGUGGUCCCAGGUCGUUUCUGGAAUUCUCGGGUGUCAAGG	0.94
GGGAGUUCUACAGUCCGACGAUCUCCUGUGCUACACAUCGUAUGUACCGAAUCAAAUUUUUUUAAAUUUUUUUAAAUUUAAAAAAGUAUUAUGUUACGCCGUUCGGAUCUGCAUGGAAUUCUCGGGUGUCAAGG	-0.681
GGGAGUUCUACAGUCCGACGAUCCACAGACAACACGCACCCACACAGACACAGAGGGAAGGGGUUGGGAUGGGGACAGGGUGCACAGCAGGGCGGGGUAGGACCCCAGCCCCGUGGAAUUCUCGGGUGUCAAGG	1.39
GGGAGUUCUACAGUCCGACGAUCCACAGACAACACGCACCCACACAGACACAGAGGGAAGGGGUUGGGAUGGGGACAGGGUGCACAGCAGGGCGGGGUAGGACCCGAGCCCCUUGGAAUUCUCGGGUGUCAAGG	1.21
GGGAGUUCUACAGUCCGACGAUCCAAGUCCUGUGCUACACAUCGUAUGUACCGAAUCGGAAAAGGAAAAGGGAAAAGGAAAGUAUUAUGUUACGCCGUUCGGAUCUGCACUUCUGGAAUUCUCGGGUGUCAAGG	-0.682
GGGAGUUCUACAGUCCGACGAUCCUGUGCUACACAUCGUAUGUACCGAAUCGGGGAAAAAAAGGGAAAAAAAGGAAAAAAAGGGAAAGUAUUAUGUUACGCCGUUCGGAUCUGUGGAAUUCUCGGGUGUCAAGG	-1.02
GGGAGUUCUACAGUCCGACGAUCCCAUAGACCCCUUUCUUCUCCCCUUCCCCACGGUAGGAACAUAGCGUGUUUAUAUUUUAUGGCCAAACUAUUUUGAAUUUUGUUGUCCGGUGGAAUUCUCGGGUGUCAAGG	-0.0337

Block 8 — target: CCNF, cyclin fold, Cln2 fusion (human); technique: yeast growth competition, sequencing; matrix: yeast; setting: strong parent motif; relative to: not given; direction: higher = stronger binding
Starting sequence: RB1 docking peptide (human); PKPLKKLRFDIEG
Variant	normalised enrichment score
PKPLKKLRFDHEG [I11H]	2.18
PYPLKKLRFDIEG [K2Y]	2.71
PKPLQKLRFDIEG [K5Q]	1.63
PKPLAKLRFDIEG [K5A]	0.493
PKPLKKLRFDIED [G13D]	2.09
PKPLKKLRQDIEG [F9Q]	0.93
PKPLIKLRFDIEG [K5I]	0.77
PKPAKKLRFDIEG [L4A]	2.67
PKPLKKLRFFIEG [D10F]	4.26
PKPLKKGRFDIEG [L7G]	1.12
PKALKKLRFDIEG [P3A]	1.56
PKPLKKLQFDIEG [R8Q]	0.677
PMPLKKLRFDIEG [K2M]	1.11
PKPLKKLRFDIRG [E12R]	1.12
